Measurements from different studies.
Each numbered part is a random draw from the data of one study; scales do not carry over between parts.

Study 1
Target: Interferon regulatory factor 5, full length, phosphomimetic (IRF5, Homo sapiens, UniProt Q13568-2, residues 1-514, S451D/S453D/S456D/S462D)
Technique: protein-binding microarray
Form: double-stranded DNA, one strand shown
Sample: in vitro
Tested at: 940 nM top
Notes: 60-bp whole probe
With: salmon DNA 0.4 mg/ml
Reference: random background probes
Direction: higher = stronger binding
Measurement: fitted relative affinity
GCCTAGCACTCAATTCTCTGTTTATGACTGTGCTAGGTCTTGATTCGCTTGACGCTGCTG: 2.13 z-score
GCCTAGCACTTCGGTATCGGACTGGGTTAGTGCTAGGTCTTGATTCGCTTGACGCTGCTG: 3.32 z-score
GCCTAGCACCTGTTTCCATCTCTCAAAAGGTGCTAGGTCTTGATTCGCTTGACGCTGCTG: 2.18 z-score
GCCTAGCACTTAGGACTGGGGTTTCGCTTAGTGCTAGTCTTGATTCGCTTGACGCTGCTG: 2.62 z-score

Study 2
Target: Sal-like protein 4, full length isoform A (SALL4, Homo sapiens, UniProt Q9UJQ4, residues 1-1053)
Chain of UniProt Q9UJQ4 (whole entry, looked up): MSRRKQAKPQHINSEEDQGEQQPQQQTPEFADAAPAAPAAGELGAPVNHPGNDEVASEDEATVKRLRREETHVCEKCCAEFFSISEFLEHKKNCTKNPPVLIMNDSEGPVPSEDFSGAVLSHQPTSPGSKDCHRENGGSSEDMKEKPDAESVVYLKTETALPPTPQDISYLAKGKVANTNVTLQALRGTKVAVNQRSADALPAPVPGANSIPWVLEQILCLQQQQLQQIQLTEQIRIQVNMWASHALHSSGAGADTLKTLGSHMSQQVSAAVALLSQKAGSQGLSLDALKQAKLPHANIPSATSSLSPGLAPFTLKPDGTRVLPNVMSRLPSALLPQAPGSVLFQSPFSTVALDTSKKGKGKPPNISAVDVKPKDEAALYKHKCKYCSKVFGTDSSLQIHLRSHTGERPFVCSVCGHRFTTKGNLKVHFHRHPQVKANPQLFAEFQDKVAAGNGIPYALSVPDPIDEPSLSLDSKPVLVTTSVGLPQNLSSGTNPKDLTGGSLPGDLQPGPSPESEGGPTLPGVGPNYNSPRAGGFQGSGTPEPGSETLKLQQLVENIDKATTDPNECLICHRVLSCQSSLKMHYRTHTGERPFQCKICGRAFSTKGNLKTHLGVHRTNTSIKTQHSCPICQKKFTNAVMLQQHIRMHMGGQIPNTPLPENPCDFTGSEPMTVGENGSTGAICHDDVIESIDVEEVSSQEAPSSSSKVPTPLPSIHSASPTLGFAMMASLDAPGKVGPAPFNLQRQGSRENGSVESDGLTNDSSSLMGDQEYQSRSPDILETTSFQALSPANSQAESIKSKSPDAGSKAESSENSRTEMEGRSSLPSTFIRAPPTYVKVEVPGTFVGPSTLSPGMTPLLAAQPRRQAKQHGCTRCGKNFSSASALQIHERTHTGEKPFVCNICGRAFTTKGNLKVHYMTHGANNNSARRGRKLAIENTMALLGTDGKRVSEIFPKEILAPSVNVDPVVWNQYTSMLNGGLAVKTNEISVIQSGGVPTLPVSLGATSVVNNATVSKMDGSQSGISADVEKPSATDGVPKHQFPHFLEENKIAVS
Technique: universal PBM
Form: double-stranded DNA, one strand shown
Sample: in vitro
Tested at: 600 nM
Notes: 8-mer, flanks averaged, mean of replicates
Direction: higher = stronger binding
Measurement: E-score
TACGGATA: 0.207
ATAGAGGG: 0.0762
AGCAGTCG: -0.17

Study 3
Target: Histone acetyltransferase KAT6A, winged helix 1, GST fusion (KAT6A, Homo sapiens, UniProt Q92794, residues 1-85)
Technique: protein binding microarray
Form: double-stranded DNA, one strand shown
Sample: in vitro
Tested at: not given
Notes: 8-mer, flanks averaged, mean of 2 arrays, mostly near background
Reference: not given
Direction: higher = stronger binding
Measurement: E-score
Target sequence (chain): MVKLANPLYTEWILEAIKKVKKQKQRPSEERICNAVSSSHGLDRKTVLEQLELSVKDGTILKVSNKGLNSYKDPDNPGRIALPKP
ACCGCACT: 0.169
AAGAGCTT: -0.16
AGAAGTTG: -0.344
GATCAGCA: -0.169
CCACATCA: -0.16
ATTTGCCA: -0.338

Further values, each from its own experiment
PhoQ, residues 284 288 289 292 302 303 ASTSDA  fold induction (PhoP, residues 12 14 15 18 19 VQGLL (Escherichia coli, UniProt P23836); Sort-seq, item: YFP reporter; E. coli; PhoQ-PhoP variant library, with: 10 µM Mg2+; reference: high Mg2+ state, higher = stronger signaling): 17.4

For quick reference, copied from above (further values, each from its own experiment):
PhoQ, residues 284 288 289 292 302 303 ASTSDA  fold induction (PhoP, residues 12 14 15 18 19 VQGLL (Escherichia coli, UniProt P23836); Sort-seq, item: YFP reporter; E. coli; PhoQ-PhoP variant library, with: 10 µM Mg2+; reference: high Mg2+ state, higher = stronger signaling): 17.4
